{"data": "Published values from different studies", "note": "A part holds a random share of what one study measured. Substitutions count along the parent as printed."}
{"data": "Study 1", "target": "Interferon regulatory factor 7, full length, phosphomimetic (IRF7, Homo sapiens, UniProt Q92985, residues 1-503, S101K/S471D/S472D/S475D/S476D/S477D/S483D/S484D/S487D)", "method": "protein-binding microarray", "molecule type": "double-stranded DNA, one strand shown", "matrix": "in vitro", "tested at": "250 nM", "notes": "60-bp whole probe", "with": "salmon DNA 0.4 mg/ml", "baseline": "random background probes", "reading": "higher = stronger binding", "all sequences stand within": "GCCTAGCAC … GTCTTGATTCGCTTGACGCTGCTG", "chain of UniProt Q92985 (whole entry, unmodified, looked up)": "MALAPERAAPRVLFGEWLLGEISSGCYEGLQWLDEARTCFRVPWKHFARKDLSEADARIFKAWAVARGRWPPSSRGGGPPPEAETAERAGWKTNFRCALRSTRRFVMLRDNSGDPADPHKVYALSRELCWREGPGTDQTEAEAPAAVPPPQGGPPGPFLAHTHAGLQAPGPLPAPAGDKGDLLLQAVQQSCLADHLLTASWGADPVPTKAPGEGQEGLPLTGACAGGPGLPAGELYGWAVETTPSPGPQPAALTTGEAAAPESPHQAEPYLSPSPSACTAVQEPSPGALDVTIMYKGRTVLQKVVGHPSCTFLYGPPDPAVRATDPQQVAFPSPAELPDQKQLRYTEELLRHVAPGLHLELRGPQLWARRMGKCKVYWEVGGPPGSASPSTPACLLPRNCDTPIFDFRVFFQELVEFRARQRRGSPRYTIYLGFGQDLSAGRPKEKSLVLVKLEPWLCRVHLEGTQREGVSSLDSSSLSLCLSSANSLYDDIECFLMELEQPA"}
{"Oligonucleotide": "GACAGTATCGACTTTCGGGACGTGCTA", "log fluorescence [z-score]": 1.3}
{"Oligonucleotide": "CTTTACATGAGTTTAGAGCCGTGCTAG", "log fluorescence [z-score]": 0.134}
{"Oligonucleotide": "GAGTGCTGGGATTACAGGCAGTGCTAG", "log fluorescence [z-score]": -0.852}
{"Oligonucleotide": "TTAGGTATCGGGTTTAGGTTAGTGCTA", "log fluorescence [z-score]": 1.7}
{"Oligonucleotide": "GACGGTTGCCTTTTCCTGACGTGCTAG", "log fluorescence [z-score]": 0.277}
{"Oligonucleotide": "GACGGTTTCGGTTACGGGACGTGCTAG", "log fluorescence [z-score]": 9.59}
{"Oligonucleotide": "TCATCATTTTCTCTGTTACTGTGCTAG", "log fluorescence [z-score]": 1.26}
{"Oligonucleotide": "GACGAACTGAGTTTTGAGACGTGCTAG", "log fluorescence [z-score]": -0.0844}
{"Oligonucleotide": "TCAAATCTCCCATTATAACTGTGCTAG", "log fluorescence [z-score]": 0.49}
{"Oligonucleotide": "TTAGATATCAGTCTCCATTAGTGCTAG", "log fluorescence [z-score]": 0.455}
{"Oligonucleotide": "TCAGGGCTACCTCTCTTACTGTGCTAG", "log fluorescence [z-score]": -1.09}
{"Oligonucleotide": "TCAACTTTCTCTGCTCTTTTCGTGCTA", "log fluorescence [z-score]": 0.955}
{"Oligonucleotide": "GACGGTATCGGGTATCGAGACGTGCTA", "log fluorescence [z-score]": 0.57}
{"Oligonucleotide": "TTAGGACTCCTTTTCCTTTAGTGCTAG", "log fluorescence [z-score]": 1.58}
{"Oligonucleotide": "TCAACTTTCCATTTCTGACTGTGCTAG", "log fluorescence [z-score]": 2.05}
{"Oligonucleotide": "GACGGACTGGGTATCGGTACGTGCTAG", "log fluorescence [z-score]": -0.164}
{"Oligonucleotide": "TCAAATTCTCATTTCCAACTGTGCTAG", "log fluorescence [z-score]": 0.805}
{"Oligonucleotide": "GACGGTATCGACTATCAGGACGTGCTA", "log fluorescence [z-score]": -0.474}
{"Oligonucleotide": "TCAACTTTCTTTTGCTTACTGTGCTAG", "log fluorescence [z-score]": 0.818}
{"data": "Study 2", "target": "CCNB3, cyclin fold, Cln2 fusion (human)", "method": "yeast growth competition, sequencing", "matrix": "yeast", "notes": "strong parent motif", "baseline": "not given", "reading": "higher = stronger binding", "parent": "RBL2 docking peptide (human); STTRRRLFVENDS; partner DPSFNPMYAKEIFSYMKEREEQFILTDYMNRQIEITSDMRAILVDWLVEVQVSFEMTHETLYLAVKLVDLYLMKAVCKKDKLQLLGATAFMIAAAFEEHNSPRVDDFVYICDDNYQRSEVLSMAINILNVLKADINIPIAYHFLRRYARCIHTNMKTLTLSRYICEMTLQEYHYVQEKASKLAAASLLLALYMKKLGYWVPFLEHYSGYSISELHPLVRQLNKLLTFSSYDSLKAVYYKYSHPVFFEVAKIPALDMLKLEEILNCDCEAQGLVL"}
{"Variant": "STSRRRLFVENDS [T3S]", "normalised enrichment score": -0.11}
{"Variant": "STTRRRLNVENDS [F8N]", "normalised enrichment score": 0.275}
{"Variant": "STTRRLLFVENDS [R6L]", "normalised enrichment score": 0.699}
{"Variant": "STTRRRLAVENDS [F8A]", "normalised enrichment score": -0.107}
{"Variant": "STTRRRLFVENDI [S13I]", "normalised enrichment score": 0.883}
{"Variant": "STMRRRLFVENDS [T3M]", "normalised enrichment score": 0.486}
{"Variant": "STTRRDLFVENDS [R6D]", "normalised enrichment score": 0.488}
{"Variant": "SYTRRRLFVENDS [T2Y]", "normalised enrichment score": 0.606}
{"Variant": "STTRRRMFVENDS [L7M]", "normalised enrichment score": 0.055}
{"Variant": "STTWRRLFVENDS [R4W]", "normalised enrichment score": 0.582}
{"Variant": "NTTRRRLFVENDS [S1N]", "normalised enrichment score": 1.12}
{"Variant": "STTRRRLFVEYDS [N11Y]", "normalised enrichment score": 0.887}
{"Variant": "STTRRRLFVHNDS [E10H]", "normalised enrichment score": 0.395}
{"Variant": "STTRRRLFVQNDS [E10Q]", "normalised enrichment score": 0.524}
{"Variant": "STTRRRVFVENDS [L7V]", "normalised enrichment score": 0.127}
{"data": "Study 3", "target": "RNA binding protein fox-1 homolog 2, RRM domain, GST-SBP tag (RBFOX2, Homo sapiens, UniProt O43251-10, residues 100-194)", "method": "RNA Bind-n-Seq", "molecule type": "RNA", "matrix": "in vitro", "tested at": "365 nM", "notes": "natural RNA segment, single round, ends assumed", "baseline": "no-protein control", "reading": "higher = stronger binding", "all sequences stand within": "GGGAGUUCUACAGUCCGACGAUC … UGGAAUUCUCGGGUGCCAA", "Target sequence (chain)": "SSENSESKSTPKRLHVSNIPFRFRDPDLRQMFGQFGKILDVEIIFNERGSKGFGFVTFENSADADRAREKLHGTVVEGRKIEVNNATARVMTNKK"}
{"Oligonucleotide": "UACCGAACAGCUGAUUCAUAUGCCAAGAAUUUGGAGUCUUCUUUCAAACCAGUGGGGGUUGGACAAUGAAUGUAGUUAACUGGUUCCUGCUCACACUCCAGAAUUAAAUU", "RBNS enrichment (R)": 0.65}
{"Oligonucleotide": "UACCAUACAUUCUUUUGUAGUAAAAUAUAAGUCAGAUUUCAAUCAUCUAUGAUUCAAGACAGUGGGAAUUUUAUCUUCUGUAACAAGUUUCAAUAAAGUUAGACCAGCUU", "RBNS enrichment (R)": 0.41}
{"Oligonucleotide": "GUUGUUAGGUUUUCGUGUAAGACUCUUGCUGUAUCGUGACAGCUGUGAUUGGUGAGUUGACCGUCCUGGCUGCCAGUUACACUGCGAUUGUAACAACAUUUUUACUUUCU", "RBNS enrichment (R)": 0.313}
{"Oligonucleotide": "UAAAAGGUUGUUUGGAUUUUCUACGUACGGUAUAUAGCGUAUUUGGAUUUUCUUUUAAACUAAACCUUUCUACUCGCCCGGAAAAAUUCCUUGGAGAUAUCGAAGUAUGG", "RBNS enrichment (R)": 0.351}
{"Oligonucleotide": "AAAGUGGAAAUUUUUCUCCCCUAUAUAAAAUUAUUCUGCCUAGCAGAAAUGCCAGAAAUAAAUUAAUUGCAUCUUAGUCUAAAUUUAAGUCCUUUGCCAUGAGGAAAAAG", "RBNS enrichment (R)": 2.08}
{"Oligonucleotide": "GCUUCCAAUGUUAAUUGAUAAUCUAUAAAUAUCAUUUUGGAAUUUGACUGGUUCACAAAUAUAUCCACAAAAUGUUUGCAUAUGGAAUAAUAGAAGCAUAUAAAACAUUG", "RBNS enrichment (R)": 0.821}
{"Oligonucleotide": "AGGCAGUGCCCUUUCCUCCCACUUUUCCUCCCCCAUAGCCACAGGCCUCUGCUCCUGCUCCUGCCUGCAUGUUCUCUCUGUUGUUGGAGCCUGGAGCCUUGCUCUCUGGG", "RBNS enrichment (R)": 4.65}
{"Oligonucleotide": "UGUCCCAUUAAGAUUUGGGCACAGAUAAGACAUCUUCCACUUUCCAUCCUUCCUACAGUUAGAGCCCCAGUAGUGCGAGAAGGCCCCAUAUAUGGCAGCAUUCAGCUCUC", "RBNS enrichment (R)": 0.358}
{"data": "Study 4", "target": "Sal-like protein 4, full length isoform B (SALL4, Homo sapiens, UniProt Q9UJQ4-2, residues 1-616)", "method": "universal PBM", "molecule type": "double-stranded DNA, one strand shown", "matrix": "in vitro", "tested at": "not given", "notes": "8-mer, flanks averaged, mean of replicates", "reading": "higher = stronger binding", "Construct (chain)": "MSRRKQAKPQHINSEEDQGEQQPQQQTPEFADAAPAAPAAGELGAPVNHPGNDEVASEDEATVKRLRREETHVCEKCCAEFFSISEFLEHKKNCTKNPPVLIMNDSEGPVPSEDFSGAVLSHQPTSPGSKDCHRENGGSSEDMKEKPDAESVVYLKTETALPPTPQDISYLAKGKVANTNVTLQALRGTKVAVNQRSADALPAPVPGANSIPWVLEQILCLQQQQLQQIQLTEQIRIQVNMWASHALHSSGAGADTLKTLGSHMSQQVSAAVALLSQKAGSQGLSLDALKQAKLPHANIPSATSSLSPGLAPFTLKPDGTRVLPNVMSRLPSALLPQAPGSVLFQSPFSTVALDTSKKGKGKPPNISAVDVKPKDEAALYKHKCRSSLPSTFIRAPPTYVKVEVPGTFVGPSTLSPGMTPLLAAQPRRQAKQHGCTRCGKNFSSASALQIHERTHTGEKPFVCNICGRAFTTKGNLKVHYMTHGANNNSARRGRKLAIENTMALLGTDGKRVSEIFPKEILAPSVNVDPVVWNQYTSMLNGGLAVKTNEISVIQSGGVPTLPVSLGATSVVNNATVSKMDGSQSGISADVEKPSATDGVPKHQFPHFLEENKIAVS"}
{"Oligonucleotide": "ATACGCAT", "E-score": 0.159}
{"Oligonucleotide": "CACGTACC", "E-score": -0.0119}
{"Oligonucleotide": "AGCGGTTC", "E-score": -0.21}
{"Oligonucleotide": "AAGCACAG", "E-score": -0.0063}
{"Oligonucleotide": "CATGCTGA", "E-score": -0.0636}
{"Oligonucleotide": "AGGGCGAT", "E-score": -0.117}
{"Oligonucleotide": "AACCAGAC", "E-score": -0.0519}
{"Oligonucleotide": "AGTCGAGA", "E-score": 0.0693}
{"Oligonucleotide": "AGCACATA", "E-score": 0.111}
{"Oligonucleotide": "CCACATCA", "E-score": 0.00286}
{"Oligonucleotide": "CAACCCAA", "E-score": 0.0477}
{"Oligonucleotide": "CGCTGGAG", "E-score": -0.252}
{"Oligonucleotide": "GCCATGCC", "E-score": -0.0939}
{"Oligonucleotide": "ACTAGGAA", "E-score": 0.0792}
{"Oligonucleotide": "TTGCCAAA", "E-score": 0.0631}
{"Oligonucleotide": "AGTCGATG", "E-score": 0.00263}
{"Oligonucleotide": "CGGGTTCC", "E-score": -0.278}
{"Oligonucleotide": "CACGCACA", "E-score": 0.0708}
{"Oligonucleotide": "CACAACGA", "E-score": 0.145}
{"Oligonucleotide": "GTTAAGAA", "E-score": 0.0162}
{"Oligonucleotide": "CCCCTTCG", "E-score": -0.275}
{"Oligonucleotide": "ATGAGGGG", "E-score": -0.00229}
{"Oligonucleotide": "GCAACGAC", "E-score": -0.16}
{"Oligonucleotide": "CTTAGTGA", "E-score": -0.111}
{"Oligonucleotide": "AACTTTAA", "E-score": 0.243}
{"data": "Study 5", "target": "Histone acetyltransferase KAT6A, winged helix 1, GST fusion (KAT6A, Homo sapiens, UniProt Q92794, residues 1-85)", "method": "protein binding microarray", "molecule type": "double-stranded DNA, one strand shown", "matrix": "in vitro", "tested at": "not given", "notes": "8-mer, flanks averaged, mean of 2 arrays, mostly near background", "baseline": "not given", "reading": "higher = stronger binding", "Target sequence (chain)": "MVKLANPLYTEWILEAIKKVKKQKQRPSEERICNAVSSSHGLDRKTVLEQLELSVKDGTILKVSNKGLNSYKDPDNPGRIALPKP"}
{"Oligonucleotide": "CAGTAAAC", "E-score": 0.0268}
{"Oligonucleotide": "AAAGTATT", "E-score": -0.173}
{"Oligonucleotide": "CGCCATTA", "E-score": 0.161}
{"Oligonucleotide": "TAGAGCCA", "E-score": -0.192}
{"Oligonucleotide": "TTCTCCAA", "E-score": -0.204}
{"Oligonucleotide": "CGCATAAG", "E-score": 0.13}
{"Oligonucleotide": "ATCTAATG", "E-score": -0.0884}
{"Oligonucleotide": "CATCATCC", "E-score": -0.0705}
{"Oligonucleotide": "ACCAGCAA", "E-score": -0.113}
{"Oligonucleotide": "GCCAGAAA", "E-score": -0.227}
{"Oligonucleotide": "AATTAAGC", "E-score": 0.0533}
{"Oligonucleotide": "CACTAACG", "E-score": 0.142}
{"Oligonucleotide": "CGGTGGTC", "E-score": 0.192}
{"Oligonucleotide": "ACTGCTCC", "E-score": -0.0882}
{"Oligonucleotide": "ATATGCAA", "E-score": -0.115}
{"Oligonucleotide": "ACCACTTG", "E-score": -0.192}
{"Oligonucleotide": "GCCGACGC", "E-score": 0.448}
{"Oligonucleotide": "TAGAGACA", "E-score": -0.232}
{"Oligonucleotide": "CAGTAGAG", "E-score": -0.167}
{"Oligonucleotide": "CGCGAAGA", "E-score": 0.143}
{"Oligonucleotide": "AAAATAAT", "E-score": -0.125}
{"Oligonucleotide": "AGTCATCA", "E-score": -0.0496}
{"Oligonucleotide": "CTCGCTAA", "E-score": 0.0606}
{"Oligonucleotide": "CGACTTGC", "E-score": 0.0331}
{"note": "Some of these lines once more (study 4):"}
{"Oligonucleotide": "ACTAGGAA", "E-score": 0.0792}
{"Oligonucleotide": "GTTAAGAA", "E-score": 0.0162}
{"Oligonucleotide": "GCCATGCC", "E-score": -0.0939}
{"Oligonucleotide": "CCCCTTCG", "E-score": -0.275}
{"Oligonucleotide": "CACGTACC", "E-score": -0.0119}
{"Oligonucleotide": "GCAACGAC", "E-score": -0.16}
